Results pooled from the literature.
Every numbered part comes from another study and shows a few of its results, in no order.

Set 1
Target: Histone acetyltransferase KAT6A, winged helix 2, GST fusion (KAT6A, Homo sapiens, UniProt Q92794, residues 85-181)
Method: protein binding microarray
Form: double-stranded DNA, one strand shown
Matrix: in vitro
Tested at: not given
Setting: 8-mer, flanks averaged, mean of 2 arrays, mostly near background
Baseline: not given
Direction: higher = stronger binding
Quantity: E-score
Residues (chain): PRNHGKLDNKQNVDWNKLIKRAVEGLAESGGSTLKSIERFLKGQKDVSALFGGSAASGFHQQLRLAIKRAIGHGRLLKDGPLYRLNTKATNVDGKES
CGCTGTAG: -0.0994
GTTACGAA: -0.00724
ATGCGGAC: -0.0475
CGCCAGTA: -0.0165
AAACGGGC: 0.0225
CGCGGGCA: 0.254
CACGGGGC: 0.0461
GGTACAAA: -0.106
CCAATTTC: 0.0629
CGGAACGC: 0.146
CACAGTGA: 0.0514
AGACACTC: -0.0486
CGGCGCAC: 0.117
AACCCGCT: -0.0784
GATTAGCA: 0.0739
ACGTACTC: -0.293
ATAGGGGA: -0.157
CACAGGGA: 0.0346
ACCCAACT: -0.0834
CCTGTTGC: 0.0871
AATCGACC: -0.0645

Set 2
Target: RING finger protein unkempt homolog, zinc fingers 1-6, GST-SBP tag (UNK, Homo sapiens, UniProt Q9C0B0, residues 30-357)
Chain of UniProt Q9C0B0 (30-357, looked up): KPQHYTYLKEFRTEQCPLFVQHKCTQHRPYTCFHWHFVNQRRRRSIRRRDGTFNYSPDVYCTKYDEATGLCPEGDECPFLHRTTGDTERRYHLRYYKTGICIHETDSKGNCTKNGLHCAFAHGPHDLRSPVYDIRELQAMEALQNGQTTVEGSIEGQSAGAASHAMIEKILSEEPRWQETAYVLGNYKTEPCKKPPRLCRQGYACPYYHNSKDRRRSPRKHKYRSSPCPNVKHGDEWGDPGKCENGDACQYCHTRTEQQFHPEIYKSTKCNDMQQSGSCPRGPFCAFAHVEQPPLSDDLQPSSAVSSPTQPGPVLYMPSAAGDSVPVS
Method: RNA Bind-n-Seq
Form: RNA
Matrix: in vitro
Tested at: not given
Setting: RNA with constant flanks, human and mouse sites, ends assumed
Baseline: input RNA pool
Direction: higher = stronger binding
Quantity: bound/input enrichment
Constant ends, left off below: GGGAGUUCUACAGUCCGACGAUC … CAACAGAGGAUUGAGCAUCA
CUCAGGUGCUUGACCAAGUACUCCCAGAUCCCUAGUGUCCUGGUCAUGAACAAGGUAGAUUGUUUGAAGCAGAAGUCAGUUCUCCUGGAGCUCACGGCAGCCCUCACUGAAGGUGUGGUC: 0.43 ratio
GUAUGCCAAGGAACUCACAUUCUCUUCCGGGAAUUCAGCUUUAUACAAGCCACACCUCAUAAUAGAGCAUCAUUCCUUCGGGCCUUCUGGAGAUGCUUCCGAACUGUAGGGAAAAAUGGU: 0.412 ratio
GCCAUUGGUCUUAUGGGUUAUAGGUUGAGUCCUCAAACAUUAACUACUAUUGUUAAACGUUAUAGCAAGAAUGGCAGAAUUUUCUUUGAUGAUUAUGUUGCUUGCUGUGUGAAGCUUCGA: 0.168 ratio
UCCAGUGGUUUUGGCGGCAAGUAUGGCGUGCAGGCCGACCGAGUAGACAAGAGCGCGGUGGGCUUCGACUACCAGGGCAAGACGGAGAAGCACGAGUCACAGAGAGAUUACUCCAAAGGU: 0.0984 ratio
UACAGACGUUCUAGAAGCCGAAGUUAUGAAAGGAGGAGAUCAAGAAGUCGGUCUUUUGAUUACAACUAUAGAAGAUCGUAUAGUCCUAGAAACAGUAGACCGACUGGAAGACCACGGCGU: 0.578 ratio
UGUUACCAAAGGAAUCAGCGUGGUCCCCAGAUGCCUUUGAUAUUUCUCUAUGUGGUUGAUACUUGCAUAGAAGAUGAGGAUUUGCAGGCUCUGAAGGAGUCCAUGCAGAUGUCGUUGAGC: 0.183 ratio
GGCAUGAAGGACGAUCGUCGUGACAGAUACUCUGCAGGCAAAAGGGGUGGAUUUAAUACCUUUAGAGACAGGGAAAACUAUGACAGAGGCUACUCUAAUCUGCUUAAGAGAGAUUUUGGG: 0.624 ratio
UCAUUGACCACCAUGAUAAUACCUACACAGUCAAGUACAUUCCUGUGCAGCAGGGCCCAGUAGGUGUCAAUGUCACUUAUGGAGGAGAUCACAUCCCCAAGAGUCCAUUUUCAGUGGGAG: 0.119 ratio
GGCAAAGUACAACAGCUACCAAAAUAUACAUCUCAAAUUGUGGGUAGAUUCAUUAAGCCUCUUAGCAAUGCAUACCACGAGUUAGCACAAGUGUAUUCAACCAACAACCCCUCAGAACUC: 0.455 ratio
CUGCUGCAGGGUUGGUACAUUGUGACCUAUGCCUUGGGGAUCUACCAUCUAAAUCUUUUCAUAGCUUUUCUUUCUCCCAAAGUGGAUCCUUCCUUAAUGGAAGACUCAGAUGACGGUCCU: 0.683 ratio
CUGCCUCACCAGUUGGUACAUUUUGUUUUUGAAAGAGGUGGGAUCCAAAAGAGCUGUUUCUAGCCACACUCCAAGCACCUGAGACUUUGGGCACAAGGACACUUUUUUUUUUUUUUUUUU: 2.93 ratio

Set 3
Organism: Saccharomyces cerevisiae
Observed: binding
Method: yeast competitive growth sequencing
Form: peptide
Setting: cyclin B2-Cln2 chimera
Direction: direction not given
Quantity: enrichment score
QYQVVDDIVSKLVFDF: 0.26
VLPGGVPSPGASLTSM: -0.45
EHCRVLFLDHVMYTIH: -0.499
KVRRNLFNQELLSP: -0.245
DKYDEGLYRFNSLNDL: 1.05
NESHLDKEHDAVEVAD: 0.213
AEHPKPSACRNLFGPV: -0.435
ESSQLTVQAEFDMSAI: 0.156

Set 4
Target: Sal-like protein 4, full length isoform A (SALL4, Homo sapiens, UniProt Q9UJQ4, residues 1-1053)
Chain of UniProt Q9UJQ4 (whole entry, looked up): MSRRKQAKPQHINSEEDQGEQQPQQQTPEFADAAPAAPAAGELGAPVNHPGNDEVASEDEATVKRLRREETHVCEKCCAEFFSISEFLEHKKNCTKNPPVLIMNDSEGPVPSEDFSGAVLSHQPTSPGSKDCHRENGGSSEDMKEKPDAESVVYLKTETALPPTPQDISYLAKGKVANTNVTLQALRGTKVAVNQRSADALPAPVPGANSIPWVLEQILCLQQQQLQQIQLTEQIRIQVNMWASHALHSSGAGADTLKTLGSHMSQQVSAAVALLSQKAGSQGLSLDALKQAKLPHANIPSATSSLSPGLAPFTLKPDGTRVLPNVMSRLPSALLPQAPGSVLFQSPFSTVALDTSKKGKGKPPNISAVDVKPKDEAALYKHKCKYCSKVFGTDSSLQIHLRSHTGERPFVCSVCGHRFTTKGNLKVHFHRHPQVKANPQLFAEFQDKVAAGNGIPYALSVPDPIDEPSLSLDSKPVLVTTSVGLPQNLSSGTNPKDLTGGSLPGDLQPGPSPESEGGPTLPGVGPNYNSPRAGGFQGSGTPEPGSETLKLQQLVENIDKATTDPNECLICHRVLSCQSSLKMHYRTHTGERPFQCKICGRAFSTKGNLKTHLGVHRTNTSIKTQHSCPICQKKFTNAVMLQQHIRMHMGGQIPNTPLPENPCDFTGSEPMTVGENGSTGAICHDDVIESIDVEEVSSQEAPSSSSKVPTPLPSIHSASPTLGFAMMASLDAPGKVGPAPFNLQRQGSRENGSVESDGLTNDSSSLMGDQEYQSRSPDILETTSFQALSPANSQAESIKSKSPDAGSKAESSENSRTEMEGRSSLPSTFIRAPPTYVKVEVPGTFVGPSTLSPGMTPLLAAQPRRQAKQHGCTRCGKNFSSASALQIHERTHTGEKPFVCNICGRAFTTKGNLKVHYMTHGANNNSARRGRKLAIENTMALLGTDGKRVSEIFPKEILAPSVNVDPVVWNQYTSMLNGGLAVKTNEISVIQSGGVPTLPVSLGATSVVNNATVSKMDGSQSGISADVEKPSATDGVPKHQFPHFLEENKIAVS
Method: universal PBM
Form: double-stranded DNA, one strand shown
Matrix: in vitro
Tested at: 600 nM
Setting: 8-mer, flanks averaged, mean of replicates
Direction: higher = stronger binding
Quantity: E-score
AGAAGGCT: -0.159
AAGTCGCA: 0.0593
TAGTACCA: 0.00833
AAGCATAA: 0.301
ACACCCCA: -0.176
AAACAGAT: 0.218
AGCGTGAG: -0.195
CCGGATTC: -0.259
ATTTCAAG: 0.243
ACGCGGCA: -0.338
AGTCGTAC: -0.0883
CAATGGCA: 0.0725
CATCTCTA: 0.112
TATTAGCA: 0.246
ACGTACAG: 0.0294
ATCGTGCG: 0.118

Set 5
Target: Interferon regulatory factor 7, full length, phosphomimetic (IRF7, Homo sapiens, UniProt Q92985, residues 1-503, S471D/S472D/S475D/S476D/S477D/S483D/S484D/S487D)
Method: protein-binding microarray
Form: double-stranded DNA, one strand shown
Matrix: in vitro
Tested at: 2200 nM top
Setting: 60-bp whole probe
Added: salmon DNA 0.4 mg/ml
Baseline: random background probes
Direction: higher = stronger binding
Quantity: fitted relative affinity
Constant ends, left off below: GCCTAGCAC … GTCTTGATTCGCTTGACGCTGCTG
Residues (chain): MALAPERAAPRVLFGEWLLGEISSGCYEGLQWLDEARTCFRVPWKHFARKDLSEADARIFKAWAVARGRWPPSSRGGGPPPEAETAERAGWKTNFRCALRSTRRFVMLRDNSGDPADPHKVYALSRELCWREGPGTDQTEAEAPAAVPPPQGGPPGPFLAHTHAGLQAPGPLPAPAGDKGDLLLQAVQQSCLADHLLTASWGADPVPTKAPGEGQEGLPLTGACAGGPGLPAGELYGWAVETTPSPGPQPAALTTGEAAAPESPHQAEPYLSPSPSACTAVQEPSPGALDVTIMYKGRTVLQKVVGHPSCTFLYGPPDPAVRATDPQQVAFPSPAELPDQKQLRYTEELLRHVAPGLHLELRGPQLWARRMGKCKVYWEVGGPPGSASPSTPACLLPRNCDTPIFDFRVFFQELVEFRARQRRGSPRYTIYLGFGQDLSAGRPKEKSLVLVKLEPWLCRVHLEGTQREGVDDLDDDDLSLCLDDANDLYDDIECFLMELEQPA
TTCTTAATGCTTCTGGACCAGTGCTAG: 0.23 z-score
TCTGTAATTCTTAGAACAGCGTGCTAG: -0.24 z-score
AAGCAAAAATGATTGGTTGAGTGCTAG: -0.622 z-score
GACGATTTCGGTTTCGGGACGTGCTAG: 10.8 z-score
TTAGGTGCCGGTTTCGGTTAGTGCTAG: 5.92 z-score
TCAAATTTCTTCCTCCCACTGTGCTAG: 1.58 z-score
TTAGGACTGGACACTGGGTTCGTGCTA: -0.636 z-score
TCCCAAGTCTTGTTTTACAATGTGCTA: 0.859 z-score
TTAGAACTGAGTATCGTTTAGTGCTAG: -0.124 z-score
TTAGGTATCGCCTATCGGTTAGTGCTA: 0.286 z-score
CTCTTCTTGCATCTGGGTATGTGCTAG: 1.87 z-score
GACGGACTGGCGTATCGGGACGTGCTA: -1.02 z-score
TTAGATTTCAGTCTAGATTAGTGCTAG: 0.0241 z-score
GACGGTTTCCTTTCCCTTACGTGCTAG: 5.25 z-score
TTAGGGTTCCTACTGCTTTAGTGCTAG: 0.243 z-score
TTAGGAATGGACTTTCGGTTAGTGCTA: 4.88 z-score
TTAGATATCGGGACTGGATTAGTGCTA: -0.373 z-score

Set 6
Target: Phosphate system positive regulatory protein PHO4, full length, GST-tagged (PHO4, Saccharomyces cerevisiae, UniProt P07270, residues 1-312)
Method: competition protein-binding microarray
Form: double-stranded DNA, one strand shown
Matrix: in vitro
Tested at: 2 µM
Setting: whole 60-bp probe, lowest competitor level
Added: Cbf1 competitor, 0.05 µM
Direction: higher = stronger binding
Quantity: fluorescence intensity
Constant ends, left off below: … GTCTTGATTCGCTTGACGCTGCTG
Target sequence (chain): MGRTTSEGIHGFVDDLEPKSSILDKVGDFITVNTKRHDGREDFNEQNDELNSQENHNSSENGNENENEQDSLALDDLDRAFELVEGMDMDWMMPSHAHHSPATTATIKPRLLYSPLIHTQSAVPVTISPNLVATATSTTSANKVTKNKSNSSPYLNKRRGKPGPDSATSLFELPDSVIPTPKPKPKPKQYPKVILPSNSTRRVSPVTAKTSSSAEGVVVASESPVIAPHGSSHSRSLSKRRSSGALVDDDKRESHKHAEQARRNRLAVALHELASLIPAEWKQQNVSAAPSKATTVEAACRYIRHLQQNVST
AAAGCGGTAATTTGCAGAGTGGGTGCAGATATCTAT: 4260 a.u.
ACCTGAAATCCTTTTACAAACCATATTTAGATGTGC: 4130 a.u.
CGCGCTGCTCTAAGCACCGTGGGTAGGCCATGAAAT: 8270 a.u.
AAAGCGGTAATTTGTCACATAACTTCACATATCTAT: 3890 a.u.
GGTTCTTCGTCTTTGCACGTGGTCGAAGAGGAACCT: 17800 a.u.
AAACCTGGTTCTGCTACCGTGCCAGTCTTTGGTATT: 4360 a.u.
AATTCACTTGATTCTCATGTGAGTACATCAGAAAAA: 3900 a.u.
AAAGCGGTAATTTTTCACGTGCTCTCACATATCTAT: 14900 a.u.
GTCTTGTCTCATTTTCACGTGTGTTTCCCCACTTCA: 12200 a.u.
AGAGGTTCCTCTCGCCATGAGGTGAGTCAGCCACTG: 5540 a.u.
GCAAAACGCCCCGCCCACGTGGAGTTGACAGTTAAG: 16200 a.u.
TTGTTCGAAAAAAATAGCGTGCTTTTTGGCCAGAAA: 5350 a.u.
GTCTTGTCTCATTTTCACGTGGACTTCCCCACTTCA: 11100 a.u.
AAATTACTAAGTTGAATAGTGGGTGACGCCGTATGA: 4050 a.u.
GCGTAGACGGATTTGCACGATGCGATGATAAATATT: 8830 a.u.
ACCCCCGCCCTCAAAGCCGTGACTCGATAACGACTT: 3850 a.u.
GGATGTCTTGTTTAGCACGTGACGGAGAACTGTGGC: 15100 a.u.
GTACCAAGACATCCGCACGTGGAAGATGACGCCTGC: 15300 a.u.

Excerpt of the above (set 3):
VLPGGVPSPGASLTSM: -0.45
EHCRVLFLDHVMYTIH: -0.499
KVRRNLFNQELLSP: -0.245
DKYDEGLYRFNSLNDL: 1.05
NESHLDKEHDAVEVAD: 0.213
AEHPKPSACRNLFGPV: -0.435
